Values quoted from earlier work that unrelated publications cite.
Protocols differ between the studies behind these lines. ± gives the spread as reported.
Chain of UniProt Q15717 (whole entry, looked up): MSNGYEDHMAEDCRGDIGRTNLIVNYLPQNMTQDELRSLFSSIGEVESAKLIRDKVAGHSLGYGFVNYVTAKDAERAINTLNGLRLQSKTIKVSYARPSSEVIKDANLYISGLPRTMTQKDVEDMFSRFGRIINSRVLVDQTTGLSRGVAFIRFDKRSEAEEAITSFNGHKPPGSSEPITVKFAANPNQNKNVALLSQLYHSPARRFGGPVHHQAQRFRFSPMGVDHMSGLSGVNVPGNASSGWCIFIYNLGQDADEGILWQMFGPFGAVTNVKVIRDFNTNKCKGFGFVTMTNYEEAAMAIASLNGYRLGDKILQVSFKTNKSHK
Chain of UniProt P63096 (whole entry, looked up): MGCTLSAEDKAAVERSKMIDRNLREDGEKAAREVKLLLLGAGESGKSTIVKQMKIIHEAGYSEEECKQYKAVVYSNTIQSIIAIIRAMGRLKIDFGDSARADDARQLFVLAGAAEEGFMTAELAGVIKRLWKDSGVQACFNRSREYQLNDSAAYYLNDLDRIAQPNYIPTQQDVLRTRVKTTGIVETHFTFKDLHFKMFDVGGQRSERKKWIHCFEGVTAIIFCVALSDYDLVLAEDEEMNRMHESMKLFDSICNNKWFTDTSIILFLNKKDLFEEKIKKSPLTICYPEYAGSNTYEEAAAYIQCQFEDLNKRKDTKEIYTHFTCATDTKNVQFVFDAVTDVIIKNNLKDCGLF

Structure (SMILES) | target or system | test | test system | setting | quantity | value
CC[C@H](C)[C@@H]1NC(=O)[C@H](CCSC)NC(=O)CCCC(=O)NCCCC[C@@H](C(N)=O)NC(=O)[C@H]([C@@H](C)O)NC(=O)CNC(=O)[C@H](C)NC(=O)[C@H](C(C)C)NC(=O)[C@H](Cc2ccccc2)NC(=O)[C@H](CCC(=O)O)NC(=O)[C@H](Cc2ccc(O)cc2)NC(=O)[C@H](Cc2c[nH]c3ccccc23)NC(=O)[C@H]([C@@H](C)O)NC1=O | Guanine nucleotide-binding protein G(i) subunit alpha-1, GDP-bound (GNAI1, Homo sapiens, UniProt P63096) |  |  |  | Kd | 0.0021 µM
CCCCCn1cc(C(=O)c2ccc3c(c2)CC(C)(C)C3)c2ccccc21 | cannabinoid receptor CB1 | binding |  |  | Ki | 0.0388 ± 0.0198 µM
C[C@H](NC(=O)[C@H](Cc1c[nH]cn1)NC(=O)[C@H](CO)NC(=O)[C@@H](N)CC(=O)O)C(=O)N[C@@H](CCCCN)C(=O)N[C@@H](CCCNC(=N)N)C(=O)N[C@@H](Cc1c[nH]cn1)C(=O)N[C@@H](Cc1c[nH]cn1)C(=O)NCC(=O)N[C@@H](Cc1ccc(O)cc1)C(=O)N[C@@H](CCCCN)C(=O)N[C@@H](CCCNC(=N)N)C(=O)N[C@@H](CCCCN)C(=O)N[C@@H](Cc1ccccc1)C(=O)N[C@@H](Cc1c[nH]cn1)C(=O)N[C@@H](CCC(=O)O)C(=O)N[C@@H](CCCCN)C(=O)N[C@@H](Cc1c[nH]cn1)C(=O)N[C@@H](Cc1c[nH]cn1)C(=O)N[C@@H](CO)C(=O)N[C@@H](Cc1c[nH]cn1)C(=O)N[C@@H](CCCNC(=N)N)C(=O)NCC(=O)N[C@@H](Cc1ccc(O)cc1)C(=O)O | Porphyromonas gingivalis | binding, radioligand binding | 381 |  | Kd | 1.5 µM
COc1ccc(SC2=CC(=O)C(=O)c3c(-c4c(C)cccc4C)cn(S(=O)(=O)c4ccccc4)c32)cc1 | ELAV-like protein 1, RRM1-RRM2 domains (ELAVL1, Homo sapiens, UniProt Q15717) |  |  |  | IC50 | 0.79 µM
O=C(C=CN1C2CCC1c1ncnc(NC3CC3)c1C2)c1ccccc1O (stereo not shown) | SMARCA2 | binding |  |  | Kd | 0.037 µM
CC(=O)N[C@H]1[C@@H](OC[C@H](NC(=O)CNC(=O)[C@@H]2CCCN2C(=O)[C@H](C)NC(=O)[C@@H]2CCCN2C(=O)[C@@H](N)CCCNC(=N)N)C(=O)N[C@H](C(=O)N[C@@H](C)C(=O)N2CCC[C@H]2C(=O)N2CCC[C@H]2C(=O)N[C@@H](C)C(=O)N[C@@H](Cc2c[nH]cn2)C(=O)NCC(=O)O)[C@@H](C)O)O[C@H](CO)[C@H](O)[C@@H]1O | 16 A monoclonal antibody | SPR |  |  | Kd | 0.93 µM
CC[C@H](C)[C@H](NC(=O)CNC(=O)[C@H](CC(=O)O)NC(=O)[C@H](CCCNC(=N)N)NC(=O)[C@@H](NC(=O)[C@H](CC(N)=O)NC(=O)[C@H](CCC(N)=O)NC(=O)CNC(=O)[C@@H](NC(=O)[C@H](CCCCN)NC(=O)[C@H](CCC(=O)O)NC(=O)[C@@H](NC(=O)[C@H](CCCCN)NC(=O)[C@H](CCCCN)NC(=O)[C@H](Cc1ccccc1)NC(=O)[C@H](CC(C)C)NC(=O)[C@H](CCCCN)NC(=O)[C@H](Cc1c[nH]c2ccccc12)NC(=O)[C@@H](N)CCCCN)[C@@H](C)CC)C(C)C)[C@@H](C)CC)C(=O)N[C@H](C(=O)N[C@@H](CCCCN)C(=O)N[C@@H](C)C(=O)NCC(=O)N1CCC[C@H]1C(=O)N[C@@H](C)C(=O)N[C@H](C(=O)N[C@@H](C)C(=O)N[C@H](C(=O)N[C@H](C(=O)NCC(=O)N[C@@H](CCC(N)=O)C(=O)N[C@@H](C)C(=O)N[C@H](C(=O)N[C@@H](CCC(N)=O)C(=O)N[C@H](C(=O)N[C@@H](C)C(=O)N[C@@H](CCCCN)C(N)=O)[C@@H](C)CC)[C@@H](C)O)C(C)C)C(C)C)C(C)C)[C@@H](C)CC |  | membrane binding | POPC bilayers | room temperature | Kd | 1000 µM
CCOC(=O)C1C(OC(c2ccc(Cl)cc2)c2ccc(Cl)cc2)CC2CCC1N2C (single isomer, unassigned) | serotonin transporter |  |  |  | Ki | 1.56 ± 0.091 µM
CC1(C)S[C@@H]2CS[C@@H](CS)N2[C@H]1C(=O)O | Metallo-beta-lactamase VIM-2 (VIM-2, Escherichia coli, UniProt Q5U7L7) | inhibitor |  |  | Ki | 10 ± 2 µM
C[C@H](NC(=O)[C@H](CCC(N)=O)NC(=O)[C@H](C)NC(=O)[C@H](CCCCN)NC(=O)[C@H](CCC(N)=O)NC(=O)[C@H](C)NC(=O)[C@H](CCCCN)NC(=O)[C@H](CCC(N)=O)NC(=O)[C@H](C)NC(=O)[C@H](CCC(N)=O)NC(=O)[C@H](CCCCN)NC(=O)[C@H](C)NC(=O)[C@H](CCC(N)=O)NC(=O)[C@H](CCCCN)NC(=O)[C@H](C)NC(=O)[C@H](CCC(N)=O)NC(=O)[C@H](C)NC(=O)[C@H](CCCCN)NC(=O)[C@H](CCC(N)=O)NC(=O)[C@H](C)NC(=O)[C@H](CCCCN)NC(=O)[C@H](CO)NC(=O)[C@H](Cc1ccc(O)cc1)NC(=O)CNC(=O)CNC(=O)CN)C(=O)N[C@@H](CCCCN)C(=O)N[C@@H](CCC(N)=O)C(=O)N[C@@H](C)C(=O)N[C@@H](CCCCN)C(=O)N[C@@H](CCC(N)=O)C(=O)O |  | binding | AA amyloid-laden tissue | high-affinity site | Kd | ~0.5 µM

For quick reference, copied from above:
Structure (SMILES) | target or system | test | test system | setting | quantity | value
C[C@H](NC(=O)[C@H](CCC(N)=O)NC(=O)[C@H](C)NC(=O)[C@H](CCCCN)NC(=O)[C@H](CCC(N)=O)NC(=O)[C@H](C)NC(=O)[C@H](CCCCN)NC(=O)[C@H](CCC(N)=O)NC(=O)[C@H](C)NC(=O)[C@H](CCC(N)=O)NC(=O)[C@H](CCCCN)NC(=O)[C@H](C)NC(=O)[C@H](CCC(N)=O)NC(=O)[C@H](CCCCN)NC(=O)[C@H](C)NC(=O)[C@H](CCC(N)=O)NC(=O)[C@H](C)NC(=O)[C@H](CCCCN)NC(=O)[C@H](CCC(N)=O)NC(=O)[C@H](C)NC(=O)[C@H](CCCCN)NC(=O)[C@H](CO)NC(=O)[C@H](Cc1ccc(O)cc1)NC(=O)CNC(=O)CNC(=O)CN)C(=O)N[C@@H](CCCCN)C(=O)N[C@@H](CCC(N)=O)C(=O)N[C@@H](C)C(=O)N[C@@H](CCCCN)C(=O)N[C@@H](CCC(N)=O)C(=O)O |  | binding | AA amyloid-laden tissue | high-affinity site | Kd | ~0.5 µM
